Measurements of several laboratories.
Compare with care: the assays were run in different laboratories. ± gives the spread as reported.
slo: slo (Streptococcus pyogenes, UniProt P0C0I3)
Sequence of UniProt P0C0I3 (whole entry, looked up): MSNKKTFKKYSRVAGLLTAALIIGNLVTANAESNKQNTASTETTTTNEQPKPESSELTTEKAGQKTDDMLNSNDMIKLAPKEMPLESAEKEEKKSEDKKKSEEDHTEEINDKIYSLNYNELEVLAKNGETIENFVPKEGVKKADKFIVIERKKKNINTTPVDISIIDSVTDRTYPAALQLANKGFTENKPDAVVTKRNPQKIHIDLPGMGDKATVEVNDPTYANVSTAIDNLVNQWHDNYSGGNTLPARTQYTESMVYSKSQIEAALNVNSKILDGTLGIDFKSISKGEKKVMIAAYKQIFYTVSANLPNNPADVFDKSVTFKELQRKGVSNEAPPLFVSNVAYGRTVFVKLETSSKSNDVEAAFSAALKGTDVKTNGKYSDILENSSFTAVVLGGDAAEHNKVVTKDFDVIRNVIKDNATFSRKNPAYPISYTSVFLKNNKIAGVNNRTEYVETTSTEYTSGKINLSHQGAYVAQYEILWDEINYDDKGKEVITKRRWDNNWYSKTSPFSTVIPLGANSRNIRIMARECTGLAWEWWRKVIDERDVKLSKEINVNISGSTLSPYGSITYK
SLC6A4: Sodium-dependent serotonin transporter (SLC6A4, Homo sapiens, UniProt P31645)
Sequence of UniProt P31645 (whole entry, looked up): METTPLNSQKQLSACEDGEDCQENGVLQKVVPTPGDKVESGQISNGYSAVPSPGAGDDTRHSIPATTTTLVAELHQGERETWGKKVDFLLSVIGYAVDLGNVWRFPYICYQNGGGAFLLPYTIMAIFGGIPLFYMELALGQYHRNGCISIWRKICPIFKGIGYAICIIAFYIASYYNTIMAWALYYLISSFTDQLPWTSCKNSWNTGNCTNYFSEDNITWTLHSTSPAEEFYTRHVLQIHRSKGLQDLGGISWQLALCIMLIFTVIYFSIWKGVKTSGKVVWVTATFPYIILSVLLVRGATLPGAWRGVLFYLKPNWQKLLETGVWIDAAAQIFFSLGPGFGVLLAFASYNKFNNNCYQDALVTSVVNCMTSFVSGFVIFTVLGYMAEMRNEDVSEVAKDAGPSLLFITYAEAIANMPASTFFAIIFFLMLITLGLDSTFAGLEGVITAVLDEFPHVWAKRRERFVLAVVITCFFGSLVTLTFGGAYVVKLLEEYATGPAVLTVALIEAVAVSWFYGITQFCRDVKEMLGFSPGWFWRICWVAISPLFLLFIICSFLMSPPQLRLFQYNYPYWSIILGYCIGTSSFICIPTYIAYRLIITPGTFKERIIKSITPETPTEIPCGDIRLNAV
CNR2: Cannabinoid receptor 2 (CNR2, Homo sapiens, UniProt P34972)
Sequence of UniProt P34972 (whole entry, looked up): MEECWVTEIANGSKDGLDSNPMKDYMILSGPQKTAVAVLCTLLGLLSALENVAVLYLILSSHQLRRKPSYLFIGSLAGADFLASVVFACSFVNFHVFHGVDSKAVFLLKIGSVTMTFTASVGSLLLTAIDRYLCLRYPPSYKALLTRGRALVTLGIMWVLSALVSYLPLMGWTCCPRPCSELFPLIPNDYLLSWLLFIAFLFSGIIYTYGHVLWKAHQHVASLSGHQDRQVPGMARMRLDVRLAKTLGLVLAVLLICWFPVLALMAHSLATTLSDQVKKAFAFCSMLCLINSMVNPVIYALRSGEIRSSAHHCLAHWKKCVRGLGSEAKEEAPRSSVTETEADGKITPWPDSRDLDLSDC
Sequence of UniProt Q9GZQ6 (whole entry, looked up): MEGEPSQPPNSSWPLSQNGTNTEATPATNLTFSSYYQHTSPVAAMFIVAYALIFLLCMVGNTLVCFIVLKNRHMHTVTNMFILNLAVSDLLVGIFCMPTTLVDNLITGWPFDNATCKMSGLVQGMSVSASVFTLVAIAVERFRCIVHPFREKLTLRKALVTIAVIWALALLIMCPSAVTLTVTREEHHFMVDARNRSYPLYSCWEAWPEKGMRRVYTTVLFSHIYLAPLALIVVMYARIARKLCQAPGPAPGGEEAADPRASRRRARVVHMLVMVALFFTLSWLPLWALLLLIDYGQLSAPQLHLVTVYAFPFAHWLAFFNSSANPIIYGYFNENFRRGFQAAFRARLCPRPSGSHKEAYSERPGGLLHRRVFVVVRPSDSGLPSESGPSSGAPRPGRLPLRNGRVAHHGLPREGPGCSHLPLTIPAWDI
Sequence of UniProt Q9Y2R2 (whole entry, looked up): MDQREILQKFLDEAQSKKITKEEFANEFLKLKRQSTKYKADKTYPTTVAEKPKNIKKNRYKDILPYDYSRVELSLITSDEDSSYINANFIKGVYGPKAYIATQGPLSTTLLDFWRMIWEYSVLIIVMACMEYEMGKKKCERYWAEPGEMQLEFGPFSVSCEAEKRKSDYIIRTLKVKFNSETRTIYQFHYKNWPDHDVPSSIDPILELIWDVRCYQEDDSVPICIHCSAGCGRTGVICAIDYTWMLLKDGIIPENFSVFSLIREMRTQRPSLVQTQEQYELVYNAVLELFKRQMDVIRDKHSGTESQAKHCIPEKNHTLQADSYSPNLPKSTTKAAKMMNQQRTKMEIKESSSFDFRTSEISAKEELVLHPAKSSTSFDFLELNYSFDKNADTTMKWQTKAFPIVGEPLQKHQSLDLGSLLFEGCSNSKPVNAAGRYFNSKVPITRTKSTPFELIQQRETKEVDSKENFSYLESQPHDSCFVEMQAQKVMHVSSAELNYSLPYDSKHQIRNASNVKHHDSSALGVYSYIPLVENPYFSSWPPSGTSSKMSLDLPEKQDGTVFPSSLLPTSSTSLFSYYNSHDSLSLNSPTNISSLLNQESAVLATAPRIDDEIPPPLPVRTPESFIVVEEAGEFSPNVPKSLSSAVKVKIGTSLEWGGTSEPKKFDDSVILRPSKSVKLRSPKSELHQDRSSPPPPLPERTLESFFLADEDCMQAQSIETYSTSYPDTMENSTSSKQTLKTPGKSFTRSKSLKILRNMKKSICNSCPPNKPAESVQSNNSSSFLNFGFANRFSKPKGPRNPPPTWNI
Sequence of UniProt P23739 (whole entry, looked up): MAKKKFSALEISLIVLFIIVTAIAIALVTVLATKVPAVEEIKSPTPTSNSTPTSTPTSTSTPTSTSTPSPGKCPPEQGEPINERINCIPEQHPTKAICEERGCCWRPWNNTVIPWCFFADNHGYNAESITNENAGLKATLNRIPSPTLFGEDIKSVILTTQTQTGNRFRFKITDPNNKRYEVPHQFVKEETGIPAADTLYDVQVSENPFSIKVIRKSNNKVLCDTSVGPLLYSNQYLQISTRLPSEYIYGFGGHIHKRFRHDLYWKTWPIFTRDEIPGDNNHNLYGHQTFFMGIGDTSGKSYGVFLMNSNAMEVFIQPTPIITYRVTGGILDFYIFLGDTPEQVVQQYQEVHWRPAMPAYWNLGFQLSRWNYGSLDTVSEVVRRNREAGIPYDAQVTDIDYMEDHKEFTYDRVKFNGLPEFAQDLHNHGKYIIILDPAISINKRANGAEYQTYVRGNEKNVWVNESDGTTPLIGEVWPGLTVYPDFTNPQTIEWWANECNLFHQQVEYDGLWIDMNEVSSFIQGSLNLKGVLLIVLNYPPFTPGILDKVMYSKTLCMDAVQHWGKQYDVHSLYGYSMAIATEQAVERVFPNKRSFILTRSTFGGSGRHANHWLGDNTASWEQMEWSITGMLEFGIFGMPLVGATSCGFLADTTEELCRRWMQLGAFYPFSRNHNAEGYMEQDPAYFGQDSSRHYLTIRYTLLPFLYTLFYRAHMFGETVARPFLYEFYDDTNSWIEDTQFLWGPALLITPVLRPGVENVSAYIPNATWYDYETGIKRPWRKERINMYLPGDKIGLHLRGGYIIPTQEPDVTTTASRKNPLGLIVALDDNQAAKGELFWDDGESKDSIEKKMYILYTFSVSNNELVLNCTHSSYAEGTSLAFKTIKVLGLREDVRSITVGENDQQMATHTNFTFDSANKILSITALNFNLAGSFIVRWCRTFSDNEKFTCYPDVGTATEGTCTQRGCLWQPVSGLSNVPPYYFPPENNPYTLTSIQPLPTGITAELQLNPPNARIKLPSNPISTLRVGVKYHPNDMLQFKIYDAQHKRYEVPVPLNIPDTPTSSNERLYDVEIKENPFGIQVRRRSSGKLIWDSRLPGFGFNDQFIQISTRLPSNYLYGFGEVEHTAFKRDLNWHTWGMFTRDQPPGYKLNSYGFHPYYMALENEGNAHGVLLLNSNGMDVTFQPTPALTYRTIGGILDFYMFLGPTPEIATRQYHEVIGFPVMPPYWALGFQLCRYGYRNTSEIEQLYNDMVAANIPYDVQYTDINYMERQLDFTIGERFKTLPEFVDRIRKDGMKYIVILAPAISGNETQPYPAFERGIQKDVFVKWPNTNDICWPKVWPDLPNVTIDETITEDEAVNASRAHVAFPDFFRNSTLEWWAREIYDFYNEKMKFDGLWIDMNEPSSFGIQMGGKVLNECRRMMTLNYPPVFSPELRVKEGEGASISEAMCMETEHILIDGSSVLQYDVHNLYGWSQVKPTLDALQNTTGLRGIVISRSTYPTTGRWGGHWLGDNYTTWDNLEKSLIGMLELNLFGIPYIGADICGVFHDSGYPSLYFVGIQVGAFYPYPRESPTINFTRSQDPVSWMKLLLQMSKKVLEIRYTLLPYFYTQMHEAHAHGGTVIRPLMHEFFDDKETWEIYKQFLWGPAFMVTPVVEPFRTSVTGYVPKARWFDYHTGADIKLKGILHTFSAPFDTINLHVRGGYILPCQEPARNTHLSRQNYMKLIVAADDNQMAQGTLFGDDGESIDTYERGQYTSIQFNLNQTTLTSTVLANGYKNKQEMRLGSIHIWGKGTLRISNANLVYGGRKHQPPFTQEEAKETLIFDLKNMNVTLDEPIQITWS
Sequence of UniProt P28221 (whole entry, looked up): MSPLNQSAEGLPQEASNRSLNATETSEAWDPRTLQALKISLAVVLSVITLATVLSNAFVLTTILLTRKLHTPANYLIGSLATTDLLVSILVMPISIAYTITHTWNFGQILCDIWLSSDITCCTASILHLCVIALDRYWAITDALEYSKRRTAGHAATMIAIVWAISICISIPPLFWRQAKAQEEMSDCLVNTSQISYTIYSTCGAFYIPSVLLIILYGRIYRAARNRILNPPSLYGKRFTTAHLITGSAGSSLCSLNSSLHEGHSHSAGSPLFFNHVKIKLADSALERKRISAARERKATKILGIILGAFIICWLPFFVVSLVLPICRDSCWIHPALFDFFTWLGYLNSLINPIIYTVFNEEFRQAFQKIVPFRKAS

`CCCCCn1cc(C(=O)Cc2ccccc2OC)c2ccccc21` gave a Kd of 0.00654 nM (CNR1 (Homo sapiens, UniProt P21554); binding, SPR).
`CC(=O)NC1C(O)CC(OC2C(O)C(CO)OC(OC3C(O)C(CO)OC(O)C3NC(C)=O)C2O)(C(=O)O)OC1C(O)C(O)CO` (stereo not drawn) has a Kd of 1400 nM (slo; binding).
`CCCCCc1cc(O)c2c(c1)OC(C)(C)C1CCC(C)=CC21` (single isomer, unassigned; (-)) has a Ki of 100 ± 56 nM (Cytochrome P450 1A2 (CYP1A2, Homo sapiens, UniProt P05177); enzyme activity, inhibitor; human liver microsomes; pH 7.4, unbound, fu,inc corrected, with: phenacetin).
`CC1=CC(C)=[N+]2C1=Cc1ccc(CCC(=O)NCCOCCOCCOCCOCC(=O)N[C@H](C(=O)N3C[C@H](O)C[C@H]3C(=O)NCc3ccc(-c4scnc4C)cc3)C(C)(C)C)n1[B-]2(F)F` gave a Kd of 3.22 nM (von Hippel-Lindau disease tumor suppressor, with elongin B/C (VHL, Homo sapiens, UniProt P40337); binding, TR-FRET; 60 min, with: BODIPY FL VH032).
`CCCCCc1cc(O)c2c(c1)OC(C)(C)c1cc(O)c(C)cc1-2` has a Ki of 123000 nM (Si (Rattus norvegicus, UniProt P23739); enzyme activity, inhibitor).
`CN[C@](C)(C[18F])C(=O)O` has a tracer uptake of 1.7 %ID/g (DU-145 tumour model; host not given, lung; 1 h, tumour-bearing).
The Ki of `Cc1ccccc1N1C(=O)/C(=C/c2ccc(OCc3cccc(C(=O)O)c3)cc2)C(=O)NC1=S` is reported as 384 nM (PTPN22 (Homo sapiens, UniProt Q9Y2R2); enzyme activity, inhibitor, fluorescence).
`CCOC(=O)C1C(OC(c2ccc(Cl)cc2)c2ccc(Cl)cc2)CC2CCC1N2C` (single isomer, unassigned) has a Ki of 3120 nM (CHRM2 (Homo sapiens, UniProt P08172); ligand displacement, radioligand).
`CCCCCCCCCC(=O)N[C@@H](CCCNC(=N)N)C(=O)N[C@H](C(=O)N[C@@H](CCCCN)C(=O)N[C@@H](CCCNC(=N)N)C(=O)CCl)C(C)C` has an EC50 of 70 nM (Proprotein convertase subtilisin/kexin type 4 (Pcsk4, Mus musculus, UniProt P29121); biochemical).
The Kd of `CC(=O)NC1C(OC2C(O)C(O)OC(CO)C2O)OC(CO)C(O)C1OC1OC(CO)C(O)C(O)C1OC1OC(C)C(O)C(O)C1O` (stereo not drawn) is reported as 2600 nM (slo; binding).
With `Fc1ccccc1CCNCc1cccc(Cl)c1Cl` the Ki was greater than 20000 nM (SLC6A4; ligand displacement, radioligand; cell membranes).
With `CCC[N+](C)(C)CCc1c[nH]c2cccc(O)c12` the Ki was 2400 nM (HTR1D (Homo sapiens, UniProt P28221); ligand displacement, radioligand).
With `N=C(N)NCCCCC(=O)NCC1(Nc2ccccc2)CCN(Cc2ccccc2)CC1` the Ki was 2450 nM (NPFFR1 (Homo sapiens, UniProt Q9GZQ6); cell-free assay).
The Kd of `CC(=O)NC1C(OC2C(O)C(CO)OC(O)C2OC2OC(C)C(O)C(O)C2O)OC(CO)C(O)C1O` (stereo not drawn) is reported as 1300 nM (slo; binding).
The EC50 of `CCCCCn1cc(C(=O)c2ccc3ccccc3c2)c2ccccc21` is reported as 39.8 nM (CNR2; β-arrestin recruitment, agonist, BRET).
`CCC[C@H](C(=O)c1ccccc1)N1CCCC1` gave an IC50 of 628000 nM (SLC6A4; transporter uptake, inhibitor, radiometric).
`CCCCCn1cc(C(=O)c2cccc3c2CC(C)(C)C3)c2ccccc21` has an EC50 of 1380 nM (CNR2; G protein activation, agonist, BRET).
For `CC[N+](C)(C)CCc1c[nH]c2cccc(O)c12`, the Ki was 830 nM (SLC6A4; ligand displacement, radioligand).

Excerpt of the above:
The Kd of `CC(=O)NC1C(OC2C(O)C(O)OC(CO)C2O)OC(CO)C(O)C1OC1OC(CO)C(O)C(O)C1OC1OC(C)C(O)C(O)C1O` (stereo not drawn) is reported as 2600 nM (slo; binding).
